Measured values pooled from the literature.
Parts stem from different laboratories: compare values within a part only. Substitutions count along the parent as printed.

Block 1
Target: BATF2, bZIP domain (human)
Method: DHFR protein complementation
Sample: yeast
Notes: single substitutions, most at no-binding floor
Relative to: wild-type JUN-FOS pair
Direction: higher = stronger binding
Endpoint: binding fitness
Parent: JUN, bZIP domain (human); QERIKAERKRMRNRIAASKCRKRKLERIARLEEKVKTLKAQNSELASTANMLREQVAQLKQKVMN; partner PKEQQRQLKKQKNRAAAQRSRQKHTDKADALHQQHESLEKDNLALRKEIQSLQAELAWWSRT
R30F: -0.227 natural log
S47M: -0.306 natural log
L31I: -0.495 natural log
T48K: -0.188 natural log
L52K: -1.47 natural log
Q41W: -1.38 natural log
A49G: -1.29 natural log
S47R: -0.121 natural log
A46N: -0.282 natural log
T37V: -0.216 natural log
L59T: -0.59 natural log
K34V: -0.521 natural log
L31D: -1.08 natural log
R30G: -0.208 natural log
A49F: -1.24 natural log
N42L: -1.46 natural log

Block 2
Target: Interferon regulatory factor 7, full length, phosphomimetic (IRF7, Homo sapiens, UniProt Q92985, residues 1-503, S471D/S472D/S475D/S476D/S477D/S483D/S484D/S487D)
Chain of UniProt Q92985 (whole entry, unmodified, looked up): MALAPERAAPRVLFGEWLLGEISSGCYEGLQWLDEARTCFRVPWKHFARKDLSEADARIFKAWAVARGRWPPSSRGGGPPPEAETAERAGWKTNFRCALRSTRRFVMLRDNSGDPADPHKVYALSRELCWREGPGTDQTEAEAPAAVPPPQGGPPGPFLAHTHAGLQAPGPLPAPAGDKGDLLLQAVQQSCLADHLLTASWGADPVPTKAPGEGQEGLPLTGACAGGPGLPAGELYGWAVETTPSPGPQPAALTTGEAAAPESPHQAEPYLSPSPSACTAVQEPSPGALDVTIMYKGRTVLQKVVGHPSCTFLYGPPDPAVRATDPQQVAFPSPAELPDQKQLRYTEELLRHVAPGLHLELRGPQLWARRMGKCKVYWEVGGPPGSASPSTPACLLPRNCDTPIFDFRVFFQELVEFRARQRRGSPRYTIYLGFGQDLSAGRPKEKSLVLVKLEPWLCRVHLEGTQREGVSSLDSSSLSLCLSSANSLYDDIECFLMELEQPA
Method: protein-binding microarray
Molecule type: double-stranded DNA, one strand shown
Sample: in vitro
Concentration: 2200 nM top
Notes: 60-bp whole probe
Together with: salmon DNA 0.4 mg/ml
Relative to: random background probes
Direction: higher = stronger binding
Endpoint: fitted relative affinity
All sequences stand within: GCCTAGCAC … GTCTTGATTCGCTTGACGCTGCTG
GGCGATTTCAGACTGGAGACGTGCTAG: -0.153 z-score
TGAGATTCCAGTTTCGATTAGTGCTAG: 6.15 z-score
TACGGTTTCGGACTGGGGACGTGCTAG: 4.04 z-score
TTAGATATCCGTCTCGATTAGTGCTAG: 0.512 z-score
TTAGGTTTCGGGTATCGGTTTGTGCTA: 7.19 z-score
GACGATTTCAGACTAGAGACGTGCTAG: 0.16 z-score
GGATGTCTGTAGCTCATTCTGTGCTAG: 0.638 z-score
TTAGATCTCAGTAACGATTAGTGCTAG: -0.339 z-score
TTAGGTATCCTTCTCCTTGAGTGCTAG: 1.01 z-score
TGGCTTTGCCTTTTGCTTTAGTGCTAG: 0.995 z-score
TTAGATCTCCGTCTCGATTAGTGCTAG: 0.843 z-score
TTAGCTCTCGGTATCGGTTAGTGCTAG: 0.896 z-score
TCATTTTTTTTTTCCCTACTGTGCTAG: 2.93 z-score
TTAGGACTGGGTCTCGGTCAGTGCTAG: -0.831 z-score
TTAGATATCAGACTGGATTGGTGCTAG: 0.0854 z-score
GACGGTCTCGATATCGGGACGTGCTAG: 0.5 z-score
TTAGGACTAGGTATCGGTTAGTGCTAG: -0.0039 z-score
GATGGTTTCGGTTCCGGGACGTGCTAG: 12.3 z-score
GACGTACTGGGGACTGGAGACGTGCTA: -0.25 z-score
TTAGGACTGGGTTTCGGTCAGTGCTAG: 1.19 z-score
GACGATATCGGGTCTCGAGACGTGCTA: 0.217 z-score
GACAATTTCGGGTATCGAGACGTGCTA: 2.75 z-score
GACGATATCGGGTTTCGAGTCGTGCTA: 3.21 z-score
TTAGGACTGGACACAGGGTTAGTGCTA: -0.935 z-score
GACGGACTGCTACTGCTGAAGTGCTAG: -0.205 z-score

Block 3
Target: CCND2, cyclin fold, Cln2 fusion (human)
Method: yeast growth competition, sequencing
Sample: yeast
Notes: weak parent motif
Relative to: not given
Direction: higher = stronger binding
Endpoint: normalised enrichment score
Parent: CDC6 docking peptide (human); TLKGRRLVFDNQL; partner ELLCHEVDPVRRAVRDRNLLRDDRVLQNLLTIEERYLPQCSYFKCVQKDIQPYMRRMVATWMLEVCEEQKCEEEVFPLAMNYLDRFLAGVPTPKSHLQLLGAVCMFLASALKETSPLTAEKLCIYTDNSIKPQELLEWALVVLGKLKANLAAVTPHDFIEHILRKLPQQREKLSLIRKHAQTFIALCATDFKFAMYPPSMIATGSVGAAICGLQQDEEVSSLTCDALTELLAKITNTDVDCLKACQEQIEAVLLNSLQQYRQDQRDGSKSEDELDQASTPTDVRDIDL
T1D: -0.253
L13D: 0.206
V8K: 0.154
F9Q: 0.418
Q12F: -0.125
D10L: 0.0739
D10S: 0.837
G4E: 0.0212
L13H: 0.00785
F9A: -0.129
F9S: 0.0134
R6L: 0.262
F9H: 0.5
L13F: 0.54
K3T: 0.493
D10V: -0.315
L7M: 0.124
R6F: -0.414
R5A: 0.0352
D10T: 0.167
R5A L7A: 0.0876
L13E: 0.567
G4D: 0.27
G4T: -0.274

Block 4
Target: RING finger protein unkempt homolog, zinc fingers 1-6, SBP tag (UNK, Homo sapiens, UniProt Q9C0B0, residues 30-357)
Chain of UniProt Q9C0B0 (30-357, looked up): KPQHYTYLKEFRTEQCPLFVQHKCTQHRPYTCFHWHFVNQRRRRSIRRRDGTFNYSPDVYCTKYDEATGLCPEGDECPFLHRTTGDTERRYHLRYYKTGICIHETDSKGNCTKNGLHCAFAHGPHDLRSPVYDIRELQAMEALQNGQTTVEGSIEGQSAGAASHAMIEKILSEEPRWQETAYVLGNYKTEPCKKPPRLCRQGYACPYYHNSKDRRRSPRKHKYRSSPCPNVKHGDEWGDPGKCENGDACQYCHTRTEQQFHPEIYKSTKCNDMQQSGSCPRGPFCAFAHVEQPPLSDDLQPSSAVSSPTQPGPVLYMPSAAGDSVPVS
Method: RNA Bind-n-Seq
Molecule type: RNA
Sample: in vitro
Concentration: 100 nM
Notes: RNA with constant flanks, vertebrate orthologous sites, ends assumed
Relative to: input RNA pool
Direction: higher = stronger binding
Endpoint: bound/input enrichment
All sequences stand within: GGGAGUUCUACAGUCCGACGAUC … CAACAGAGGAUUGAGCAUCA
AGAAAAUUAUAACCAAGAAUCAGAAGGUAGAAGUACAGGACCAUGGUUAUCAUCUUCACUUAGAAAUAGAUGUACACCUUUGUUCUCUAGAAGGAGGCGAGAGGGUCGAGAUGAGUCUUC: 0.595 ratio
GAUUUGGACCUUGGAGCUGAACCAGUGAGCUAGCAAAAGUAAAGCAGCCUUGUAAAAUUAUAGCUAUAUGCAGCUGCACAACACAGUCCUACCACUAGCAGCUGUGUUAAAGUAUUUAUA: 0.608 ratio
AUUGGAUGCAGUGUAAAAUUAUCCAAGGCAGUGACUUCAGCUUUAUAUAUAUAUAAAAUAUAGUUAGUUUUAAAGUUAUUGACAUUUAUUUAAAGUUUUAGAUUGGAUUGUUAUUGCUCU: 1.24 ratio
GCAACAAUGGCUCCUGCUCUAUUACAAAGAUAAGAAACAGUCCCACGCCUAAACAAUAAAUAGAUAUUUUUGAAGUUUAAAUAUUUACAUUUUGUAAGUCAGCUGUUUGGGAUGUCAUGU: 0.683 ratio
GGGACGCUUUGAUGUAAAAAUUGAAGUUAAGAGCUGAUCACAAGCACAAAUCUUUCCCACUAGCCAUUUAAUAAGUUAAAAAAAGAUACAAAAACAAAAAACCUACUAGUCUUGAACAAA: 3.42 ratio
AAAUGGCUUCUGCCCCAUUAAGAAGAGUAAAAAUAGUCCCGCAACUAUAAAGCUCCUCAAUAGCUAUUUUUAAAAUAAAAAUGUUUAAAUUUUGUAAAUCACCUGAUGCCACUACACGAC: 2.2 ratio
AGAGGAUUAGGUUUGAUCCUUUACGUGUUUAAAAAAAAGCAUAAAAACAUUUUAAAAACAUAGAAAAAUUCAGCAAACCAUUUUUAAAGUAGAAGAGGGUUUUAGGUAGGAAAACGUAUU: 0.432 ratio
CAUUGUACCCUGCUGUAUAAUAAAUAAUCUUAGACAUUUAUCAACUGUUGAUACAAAUGUUAGUCCCUAACCACUUUUUAUAUGUUUUAAAUUUUUGAAAUUCAAGUGUACCUGCCGUAA: 1.41 ratio
CUCUCUAAGUGACAGUAUCCCAUCUGUAGCAGAUUCCCACUCAAGUCAUUUUUCUGAGUUUAGUUGCUCUGAUAUGGAAAGUAUGAAAACCUCAUGUAGCCAUGGUUCCAAUGAUUAUCA: 0.483 ratio
CAUUGUACUGCAAAAAUCAUCCUUCUUCUUAAACUAAGCACAGUGAUAACUAGUCUGCACUACUAGAAUCACUUAAUAUUACCUUUCAUUUGCAAUUACCUUUUAAGUGAUCUGUUUGGU: 0.731 ratio
AAUAAUGAAUAGUAUUAAAGAAACAUUCUCGUCUUCCUUUACCUUUAAUCCCCUAAUACCUAGUCUACUUUUUAAAUUUUCAGACUUCACUGCUUUUUGAAUUCAUAAUUCCAAUUAUCA: 2.33 ratio

Block 5
Target: Histone acetyltransferase KAT6A, winged helix 2, GST fusion (KAT6A, Homo sapiens, UniProt Q92794, residues 85-181)
Method: protein binding microarray
Molecule type: double-stranded DNA, one strand shown
Sample: in vitro
Concentration: not given
Notes: 8-mer, flanks averaged, mean of 2 arrays, mostly near background
Relative to: not given
Direction: higher = stronger binding
Endpoint: E-score
Construct (chain): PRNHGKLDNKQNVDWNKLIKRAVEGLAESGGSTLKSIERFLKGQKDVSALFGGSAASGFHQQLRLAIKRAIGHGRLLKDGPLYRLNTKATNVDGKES
AGTGATTC: 0.0106
CCATCCCC: -0.0284
CAGAATAG: -0.0777
GATCCCAA: 0.0262
TATCTACA: -0.0945
GGCCCTTA: -0.0135
GGCGTCGA: 0.261
ACCCACTG: 0.132
CTGGCCGC: 0.006
GGCTTATA: -0.0533
AGTAGAGA: 0.131
TAATAACA: 0.0525
ACGTGTAT: -0.207
AGCGCAAT: -0.0279
CGTCGTCC: -0.0548
AAGTCCAG: 0.0392
ACCCCCAA: -0.0743
CGCCAAGA: -0.0636
CCTGAGCA: 0.125
ACAGCCGA: -0.14
GCTAAAGA: 0.155
GCCCCGAA: 0.158
CGCTGTGC: 0.142
GAGGGCCA: 0.179
AATCGCGG: 0.0251

For quick reference, copied from above (block 2):
TTAGATATCAGACTGGATTGGTGCTAG: 0.0854 z-score
TTAGGTTTCGGGTATCGGTTTGTGCTA: 7.19 z-score
GACGATATCGGGTCTCGAGACGTGCTA: 0.217 z-score
TTAGATATCCGTCTCGATTAGTGCTAG: 0.512 z-score
GATGGTTTCGGTTCCGGGACGTGCTAG: 12.3 z-score
